Published values gathered from unrelated publications.
Each numbered part is a random draw from the data of one study; scales do not carry over between parts.
Sequence of UniProt P10721 (whole entry, unmodified, looked up): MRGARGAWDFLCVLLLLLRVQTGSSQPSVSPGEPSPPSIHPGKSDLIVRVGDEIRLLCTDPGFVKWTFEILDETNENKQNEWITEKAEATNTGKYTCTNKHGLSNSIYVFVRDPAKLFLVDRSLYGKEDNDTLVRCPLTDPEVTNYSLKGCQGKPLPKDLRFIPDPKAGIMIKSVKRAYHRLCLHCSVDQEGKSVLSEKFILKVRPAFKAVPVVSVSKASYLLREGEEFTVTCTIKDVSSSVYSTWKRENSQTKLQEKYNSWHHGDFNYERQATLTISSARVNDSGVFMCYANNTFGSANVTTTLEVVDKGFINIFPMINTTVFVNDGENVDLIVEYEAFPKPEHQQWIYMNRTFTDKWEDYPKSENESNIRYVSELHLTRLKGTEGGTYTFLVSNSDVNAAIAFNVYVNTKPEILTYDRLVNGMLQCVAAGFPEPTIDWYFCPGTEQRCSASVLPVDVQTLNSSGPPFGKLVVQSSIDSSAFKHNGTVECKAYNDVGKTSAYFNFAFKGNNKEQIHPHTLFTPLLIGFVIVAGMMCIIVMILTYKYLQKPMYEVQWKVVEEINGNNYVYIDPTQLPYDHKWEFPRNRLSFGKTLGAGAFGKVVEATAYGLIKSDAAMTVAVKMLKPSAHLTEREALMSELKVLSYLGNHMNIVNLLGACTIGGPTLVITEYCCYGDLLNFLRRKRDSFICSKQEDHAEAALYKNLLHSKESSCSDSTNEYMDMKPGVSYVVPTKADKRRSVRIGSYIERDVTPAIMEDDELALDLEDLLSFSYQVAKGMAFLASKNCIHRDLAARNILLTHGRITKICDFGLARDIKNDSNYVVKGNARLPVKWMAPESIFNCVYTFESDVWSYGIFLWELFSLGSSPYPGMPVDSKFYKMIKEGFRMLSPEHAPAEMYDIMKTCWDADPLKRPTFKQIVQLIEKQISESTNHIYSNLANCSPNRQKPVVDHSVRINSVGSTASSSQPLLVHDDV
Sequence of UniProt P21802 (whole entry, looked up): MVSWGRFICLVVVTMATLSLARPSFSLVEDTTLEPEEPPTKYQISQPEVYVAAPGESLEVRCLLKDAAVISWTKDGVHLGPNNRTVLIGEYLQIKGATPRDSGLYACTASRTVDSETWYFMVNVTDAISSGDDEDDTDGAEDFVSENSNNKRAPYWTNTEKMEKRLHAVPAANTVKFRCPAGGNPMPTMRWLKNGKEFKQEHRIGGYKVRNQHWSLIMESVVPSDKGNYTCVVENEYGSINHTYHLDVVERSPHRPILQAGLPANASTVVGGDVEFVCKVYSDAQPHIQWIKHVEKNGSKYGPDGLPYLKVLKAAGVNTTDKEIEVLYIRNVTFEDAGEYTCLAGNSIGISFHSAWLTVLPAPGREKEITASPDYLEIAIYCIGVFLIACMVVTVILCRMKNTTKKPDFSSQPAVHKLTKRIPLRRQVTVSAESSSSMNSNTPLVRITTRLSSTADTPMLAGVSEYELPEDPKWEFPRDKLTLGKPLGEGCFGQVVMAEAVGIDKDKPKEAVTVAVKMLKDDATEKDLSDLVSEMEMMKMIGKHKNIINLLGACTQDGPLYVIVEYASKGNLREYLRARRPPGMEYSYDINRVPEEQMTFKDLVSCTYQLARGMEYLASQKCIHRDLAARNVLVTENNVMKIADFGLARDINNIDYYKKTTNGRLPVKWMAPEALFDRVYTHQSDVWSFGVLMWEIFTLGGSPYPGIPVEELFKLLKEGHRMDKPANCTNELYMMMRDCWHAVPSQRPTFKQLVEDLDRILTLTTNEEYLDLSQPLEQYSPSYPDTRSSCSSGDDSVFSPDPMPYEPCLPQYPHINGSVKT
Sequence of UniProt Q9UKE5 (whole entry, looked up): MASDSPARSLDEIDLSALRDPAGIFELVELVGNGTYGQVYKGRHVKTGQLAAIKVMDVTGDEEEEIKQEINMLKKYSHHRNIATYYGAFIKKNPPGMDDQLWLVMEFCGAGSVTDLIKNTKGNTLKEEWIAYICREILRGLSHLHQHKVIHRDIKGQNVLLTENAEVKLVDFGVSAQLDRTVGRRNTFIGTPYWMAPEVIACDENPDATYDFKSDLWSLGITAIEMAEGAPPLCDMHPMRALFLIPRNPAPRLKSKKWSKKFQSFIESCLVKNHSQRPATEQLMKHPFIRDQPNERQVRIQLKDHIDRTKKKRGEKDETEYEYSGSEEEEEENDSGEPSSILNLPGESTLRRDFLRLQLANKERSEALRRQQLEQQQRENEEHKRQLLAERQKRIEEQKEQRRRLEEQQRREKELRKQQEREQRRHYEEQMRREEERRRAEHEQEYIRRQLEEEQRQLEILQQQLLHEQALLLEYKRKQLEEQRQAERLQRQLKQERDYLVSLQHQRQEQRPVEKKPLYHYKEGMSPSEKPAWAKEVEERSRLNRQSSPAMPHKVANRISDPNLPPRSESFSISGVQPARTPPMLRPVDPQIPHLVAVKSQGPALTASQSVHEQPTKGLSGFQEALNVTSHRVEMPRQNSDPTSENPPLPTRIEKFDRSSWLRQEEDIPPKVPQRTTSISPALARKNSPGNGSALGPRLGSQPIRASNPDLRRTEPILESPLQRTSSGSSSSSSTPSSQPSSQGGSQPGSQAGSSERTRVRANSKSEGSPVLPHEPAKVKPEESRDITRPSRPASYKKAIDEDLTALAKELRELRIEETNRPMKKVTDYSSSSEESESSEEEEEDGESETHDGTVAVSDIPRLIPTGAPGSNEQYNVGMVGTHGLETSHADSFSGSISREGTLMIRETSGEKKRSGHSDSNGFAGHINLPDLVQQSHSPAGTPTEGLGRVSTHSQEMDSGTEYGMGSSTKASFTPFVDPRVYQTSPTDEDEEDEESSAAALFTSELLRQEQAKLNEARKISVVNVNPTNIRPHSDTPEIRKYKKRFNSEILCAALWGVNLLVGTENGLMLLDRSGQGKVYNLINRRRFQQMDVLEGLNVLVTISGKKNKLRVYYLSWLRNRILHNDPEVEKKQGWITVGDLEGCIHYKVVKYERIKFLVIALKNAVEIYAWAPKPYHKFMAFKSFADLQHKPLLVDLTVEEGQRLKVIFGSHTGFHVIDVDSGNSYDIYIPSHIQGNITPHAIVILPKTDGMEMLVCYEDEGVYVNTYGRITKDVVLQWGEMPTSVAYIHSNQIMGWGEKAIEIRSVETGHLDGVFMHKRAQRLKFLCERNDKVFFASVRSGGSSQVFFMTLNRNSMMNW
Sequence of UniProt P54762 (whole entry, looked up): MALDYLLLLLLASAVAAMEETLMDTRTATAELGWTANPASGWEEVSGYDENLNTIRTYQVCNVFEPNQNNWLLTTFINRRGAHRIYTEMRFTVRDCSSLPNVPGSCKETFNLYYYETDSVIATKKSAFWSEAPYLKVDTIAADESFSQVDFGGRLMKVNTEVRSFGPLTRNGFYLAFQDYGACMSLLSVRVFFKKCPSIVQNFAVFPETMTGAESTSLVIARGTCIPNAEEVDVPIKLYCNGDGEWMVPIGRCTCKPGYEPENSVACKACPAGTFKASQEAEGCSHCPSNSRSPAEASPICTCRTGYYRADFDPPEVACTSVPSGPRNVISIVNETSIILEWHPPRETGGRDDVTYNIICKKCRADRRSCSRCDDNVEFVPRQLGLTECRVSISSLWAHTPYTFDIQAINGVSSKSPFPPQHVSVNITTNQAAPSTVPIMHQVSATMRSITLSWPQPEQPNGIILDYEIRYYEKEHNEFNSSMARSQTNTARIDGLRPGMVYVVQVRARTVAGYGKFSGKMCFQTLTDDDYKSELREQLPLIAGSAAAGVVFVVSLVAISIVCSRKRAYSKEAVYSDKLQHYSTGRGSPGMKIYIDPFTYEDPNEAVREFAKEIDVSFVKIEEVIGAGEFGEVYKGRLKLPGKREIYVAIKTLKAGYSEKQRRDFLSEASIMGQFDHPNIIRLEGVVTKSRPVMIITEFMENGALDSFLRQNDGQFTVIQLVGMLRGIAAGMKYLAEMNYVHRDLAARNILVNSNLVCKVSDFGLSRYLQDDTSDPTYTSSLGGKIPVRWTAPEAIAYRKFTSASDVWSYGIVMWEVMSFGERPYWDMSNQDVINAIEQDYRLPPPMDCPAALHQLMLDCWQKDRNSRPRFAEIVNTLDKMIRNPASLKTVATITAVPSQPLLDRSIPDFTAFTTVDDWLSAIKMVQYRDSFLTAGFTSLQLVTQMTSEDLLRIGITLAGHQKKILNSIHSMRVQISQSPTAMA
Sequence of UniProt Q9HAZ1 (whole entry, looked up): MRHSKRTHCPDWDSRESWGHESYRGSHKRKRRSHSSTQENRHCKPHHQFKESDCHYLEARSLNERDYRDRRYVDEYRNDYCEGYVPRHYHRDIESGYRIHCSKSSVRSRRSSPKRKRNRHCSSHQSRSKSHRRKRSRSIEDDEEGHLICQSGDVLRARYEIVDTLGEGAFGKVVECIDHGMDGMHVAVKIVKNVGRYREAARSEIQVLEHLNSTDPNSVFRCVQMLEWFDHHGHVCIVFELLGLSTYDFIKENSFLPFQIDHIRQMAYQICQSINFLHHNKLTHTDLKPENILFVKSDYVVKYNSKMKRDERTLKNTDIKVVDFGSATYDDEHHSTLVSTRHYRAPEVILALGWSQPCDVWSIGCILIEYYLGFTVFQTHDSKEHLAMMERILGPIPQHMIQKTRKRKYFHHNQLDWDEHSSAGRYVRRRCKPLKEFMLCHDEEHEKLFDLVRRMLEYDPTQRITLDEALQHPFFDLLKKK

Series 1 — host: mouse; matrix: microsomes or S9; concentration: 2 µM; time: 0.5 h
Structure (SMILES) | remaining compound
CN(C)c1ccc2c3c(ccc(N(C)C)c13)C(=O)OC2 | 45.2%
O=C1CC(c2cccc3[nH]ccc23)c2c(n[nH]c2-c2ccccc2)N1 (centres unmarked) | 9.94%
CCOc1ccc(NC(=O)Nc2ccc(-c3nnc(-c4ccccc4)o3)cc2)cc1 | > 100%
O=C1OC2(CCCN(C(=O)Cc3cccc4ccccc34)C2)c2ccccc21 (centres unmarked) | 0.92%
COc1ccc(NC(=O)c2cc3c(=O)n4cc(C)ccc4nc3n2Cc2ccccc2)c(OC)c1 | 78%
N#Cc1ncc(Br)cc1NC(=O)C(F)(F)F | > 99%
CCC1(C(=O)O)CCCN(C(=O)Cc2nc(C)n[nH]2)C1 (centres unmarked) | 84.1%
CCOC(=O)COc1ccc(-c2noc(-c3ccc(OCc4ccc(Br)cc4)cc3)c3cccc2-3)cc1 | 96.7%
CC(=O)c1ccc(C(=O)NOCC(C)NC(=O)OC(C)(C)C)cc1 (centres unmarked) | > 100%

Series 2 — technique: Phase 2a trial; host: human, idiopathic pulmonary fibrosis
Structure (SMILES): CC(C)n1cnc(-c2ccc(F)cc2)c1-c1ncc(C(=O)Nc2ccc(N3CCN(C)CC3)cc2)[nH]1
measured | dose | setting | patients with adverse event
hypokalaemia | 30 mg once daily | grade 3 | 0%
respiratory, thoracic, mediastinal disorders | all compound arms | grade 4 | 0%
blood pressure increased | 30 mg once daily | grade 3 | 0%
blood pressure increased | all compound arms total | grade 3 | 0%
hypercholesterolaemia | 30 mg once daily | grade 1 | 0%
hepatobiliary disorders | 60 mg once daily | grade 5 | 0%
blood lactate dehydrogenase increased | 30 mg once daily | grade 2 | 0%

Series 3 — effect on: cell-free assay; technique: competition with immobilised ligand; concentration: 1 µM
SMILES: CNC(=O)Nc1ccc2c(c1)[C@@]1(CC2)OC(=O)N(CC(=O)N(Cc2ccc(F)cc2)[C@@H](C)C(F)(F)F)C1=O
target | remaining binding [%]
Mast/stem cell growth factor receptor Kit (KIT, Homo sapiens, UniProt P10721, D816V) | 96
TRAF2 and NCK-interacting protein kinase (TNIK, Homo sapiens, UniProt Q9UKE5) | 87
Dual specificity protein kinase CLK4 (CLK4, Homo sapiens, UniProt Q9HAZ1) | 78
Mast/stem cell growth factor receptor Kit (KIT, Homo sapiens, UniProt P10721, A829P) | 100
Mitogen-activated protein kinase kinase kinase kinase 5 (MAP4K5, Homo sapiens, UniProt Q9Y4K4) | 100
Mast/stem cell growth factor receptor Kit (KIT, Homo sapiens, UniProt P10721) | 94
Rho-associated protein kinase 1 (ROCK1, Homo sapiens, UniProt Q13464) | 81
Ephrin type-B receptor 1 (EPHB1, Homo sapiens, UniProt P54762) | 100
Mast/stem cell growth factor receptor Kit (KIT, Homo sapiens, UniProt P10721, L576P) | 81
Serine/threonine-protein kinase LATS2 (LATS2, Homo sapiens, UniProt Q9NRM7) | 68
AP2-associated protein kinase 1 (AAK1, Homo sapiens, UniProt Q2M2I8) | 100
Dual specificity mitogen-activated protein kinase kinase 7 (MAP2K7, Homo sapiens, UniProt O14733) | 85
Receptor-interacting serine/threonine-protein kinase 1 (RIPK1, Homo sapiens, UniProt Q13546) | 93
Phosphatidylinositol 4,5-bisphosphate 3-kinase catalytic subunit alpha isoform (PIK3CA, Homo sapiens, UniProt P42336, H1047Y) | 100
Epidermal growth factor receptor (EGFR, Homo sapiens, UniProt P00533, L861Q) | 100
Fibroblast growth factor receptor 2 (FGFR2, Homo sapiens, UniProt P21802) | 87
Receptor tyrosine-protein kinase erbB-3 (ERBB3, Homo sapiens, UniProt P21860) | 81
Mitogen-activated protein kinase kinase kinase 11 (MAP3K11, Homo sapiens, UniProt Q16584) | 91
Uncharacterized serine/threonine-protein kinase SBK3 (SBK3, Homo sapiens, UniProt P0C264) | 100
Serine/threonine-protein kinase NLK (NLK, Homo sapiens, UniProt Q9UBE8) | 77
Serine/threonine-protein kinase Nek11 (NEK11, Homo sapiens, UniProt Q8NG66) | 84
Serine/threonine-protein kinase 4 (STK4, Homo sapiens, UniProt Q13043) | 100

Series 4 — effect on: enzyme activity; mode: inhibitor; concentration: 0.5 µM; reference: control
Target: Protein-tyrosine kinase 6 (PTK6, Homo sapiens, UniProt Q13882)
Sequence of UniProt Q13882 (whole entry, looked up): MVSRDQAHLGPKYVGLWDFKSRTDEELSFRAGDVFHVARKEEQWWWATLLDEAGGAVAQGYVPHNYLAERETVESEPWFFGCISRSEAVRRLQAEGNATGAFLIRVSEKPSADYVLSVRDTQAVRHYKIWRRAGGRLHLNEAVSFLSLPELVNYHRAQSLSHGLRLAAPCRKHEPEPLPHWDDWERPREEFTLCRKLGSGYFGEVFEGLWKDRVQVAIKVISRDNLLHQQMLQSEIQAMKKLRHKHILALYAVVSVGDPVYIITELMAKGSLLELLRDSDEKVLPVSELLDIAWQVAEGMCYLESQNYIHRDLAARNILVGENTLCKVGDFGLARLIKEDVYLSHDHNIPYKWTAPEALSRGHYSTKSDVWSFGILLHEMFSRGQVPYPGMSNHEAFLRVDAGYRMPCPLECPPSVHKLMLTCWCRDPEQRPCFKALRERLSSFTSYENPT
SMILES | remaining activity [%]
Fc1ccc(-c2nc3n(c2-c2ccncc2)CCS3)cc1 | 84.8
Nc1nccc(-c2c(-c3ccc(F)cc3)ncn2C2CCNCC2)n1 | 73.4
Cc1ccc(NC2=CC(=O)c3sc(C)nc3C2=O)cc1 | 89.2
CCc1[nH]c(-c2ccc(OC)cc2)nc1-c1ccncc1 | 88.5
CC#CC(=O)Nc1cc2c(Nc3ccc(F)c(Cl)c3)ncnc2cn1 | 56.8
NC(=O)c1ccc(N(C(N)=O)c2c(F)cccc2F)nc1-c1ccc(F)cc1F | 98.7
O=C1NC(=O)C(c2c[nH]c3ccccc23)=C1c1c[nH]c2ccccc12 | 84.6
Cc1cncc2cccc(S(=O)(=O)N3CCCN(C(=O)CN)C[C@@H]3C)c12 | 87.8
Nc1ncnc2c1cnn2-c1ccccc1 | 92

Some of these lines once more (series 3):
target | remaining binding [%]
Serine/threonine-protein kinase Nek11 (NEK11, Homo sapiens, UniProt Q8NG66) | 84
Uncharacterized serine/threonine-protein kinase SBK3 (SBK3, Homo sapiens, UniProt P0C264) | 100
Serine/threonine-protein kinase 4 (STK4, Homo sapiens, UniProt Q13043) | 100
Dual specificity mitogen-activated protein kinase kinase 7 (MAP2K7, Homo sapiens, UniProt O14733) | 85
Mast/stem cell growth factor receptor Kit (KIT, Homo sapiens, UniProt P10721) | 94
Dual specificity protein kinase CLK4 (CLK4, Homo sapiens, UniProt Q9HAZ1) | 78
Serine/threonine-protein kinase NLK (NLK, Homo sapiens, UniProt Q9UBE8) | 77
Ephrin type-B receptor 1 (EPHB1, Homo sapiens, UniProt P54762) | 100
